Published values from different studies.
Compare with care: the assays were run in different laboratories. ± gives the spread as reported.
CASP3: Caspase-3 (CASP3, Homo sapiens, UniProt P42574)

Chains of the proteins cited; added tags and fusions are not shown. Residues count along the entry.
UniProt P42574, whole entry, looked up: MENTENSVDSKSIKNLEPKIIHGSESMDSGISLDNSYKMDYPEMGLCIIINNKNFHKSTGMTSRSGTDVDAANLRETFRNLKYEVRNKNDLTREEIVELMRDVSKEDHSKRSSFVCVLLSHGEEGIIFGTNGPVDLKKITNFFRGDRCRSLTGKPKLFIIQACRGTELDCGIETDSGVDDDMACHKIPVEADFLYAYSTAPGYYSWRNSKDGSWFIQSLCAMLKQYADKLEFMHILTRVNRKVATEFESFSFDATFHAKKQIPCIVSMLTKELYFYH
UniProt P05177, whole entry: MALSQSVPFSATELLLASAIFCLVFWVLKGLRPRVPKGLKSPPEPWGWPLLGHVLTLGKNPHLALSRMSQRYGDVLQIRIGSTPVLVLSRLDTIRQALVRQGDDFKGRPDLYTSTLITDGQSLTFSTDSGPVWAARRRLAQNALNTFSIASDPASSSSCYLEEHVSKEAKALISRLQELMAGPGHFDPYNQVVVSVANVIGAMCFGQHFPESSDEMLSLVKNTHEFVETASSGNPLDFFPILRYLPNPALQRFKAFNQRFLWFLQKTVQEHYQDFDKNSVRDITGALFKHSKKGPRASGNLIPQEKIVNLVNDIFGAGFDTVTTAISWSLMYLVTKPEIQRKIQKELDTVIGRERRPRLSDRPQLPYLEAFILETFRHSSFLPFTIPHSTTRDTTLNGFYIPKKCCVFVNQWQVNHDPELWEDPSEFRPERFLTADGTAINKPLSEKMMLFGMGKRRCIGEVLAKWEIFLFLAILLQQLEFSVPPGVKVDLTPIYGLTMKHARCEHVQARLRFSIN
UniProt P08684, whole entry: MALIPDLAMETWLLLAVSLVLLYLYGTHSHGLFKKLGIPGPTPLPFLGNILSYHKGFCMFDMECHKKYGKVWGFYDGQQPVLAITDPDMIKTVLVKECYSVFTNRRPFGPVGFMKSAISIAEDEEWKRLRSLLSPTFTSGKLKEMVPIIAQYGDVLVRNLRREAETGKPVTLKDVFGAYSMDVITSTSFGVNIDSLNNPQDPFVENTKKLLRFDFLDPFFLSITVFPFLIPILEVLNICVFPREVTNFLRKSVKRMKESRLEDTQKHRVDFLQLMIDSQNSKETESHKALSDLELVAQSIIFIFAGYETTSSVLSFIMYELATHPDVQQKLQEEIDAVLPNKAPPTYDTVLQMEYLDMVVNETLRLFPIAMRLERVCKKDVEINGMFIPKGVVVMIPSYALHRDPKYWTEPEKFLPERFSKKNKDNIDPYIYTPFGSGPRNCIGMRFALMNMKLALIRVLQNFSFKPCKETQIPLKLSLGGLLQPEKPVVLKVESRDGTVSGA
UniProt P12389, 28-511 limits assumed: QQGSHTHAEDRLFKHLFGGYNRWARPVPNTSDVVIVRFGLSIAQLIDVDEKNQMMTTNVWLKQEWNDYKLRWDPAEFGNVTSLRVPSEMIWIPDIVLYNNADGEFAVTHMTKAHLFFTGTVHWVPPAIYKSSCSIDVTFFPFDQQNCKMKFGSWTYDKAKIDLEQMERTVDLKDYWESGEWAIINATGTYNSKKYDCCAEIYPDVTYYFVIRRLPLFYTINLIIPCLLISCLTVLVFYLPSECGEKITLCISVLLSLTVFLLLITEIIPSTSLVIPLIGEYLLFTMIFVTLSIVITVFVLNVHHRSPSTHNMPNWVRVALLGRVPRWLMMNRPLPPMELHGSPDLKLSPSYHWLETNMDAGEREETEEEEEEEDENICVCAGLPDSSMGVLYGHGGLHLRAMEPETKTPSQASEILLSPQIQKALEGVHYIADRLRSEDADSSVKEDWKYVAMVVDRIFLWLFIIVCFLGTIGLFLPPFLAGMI
UniProt P12390, 25-500 limits assumed: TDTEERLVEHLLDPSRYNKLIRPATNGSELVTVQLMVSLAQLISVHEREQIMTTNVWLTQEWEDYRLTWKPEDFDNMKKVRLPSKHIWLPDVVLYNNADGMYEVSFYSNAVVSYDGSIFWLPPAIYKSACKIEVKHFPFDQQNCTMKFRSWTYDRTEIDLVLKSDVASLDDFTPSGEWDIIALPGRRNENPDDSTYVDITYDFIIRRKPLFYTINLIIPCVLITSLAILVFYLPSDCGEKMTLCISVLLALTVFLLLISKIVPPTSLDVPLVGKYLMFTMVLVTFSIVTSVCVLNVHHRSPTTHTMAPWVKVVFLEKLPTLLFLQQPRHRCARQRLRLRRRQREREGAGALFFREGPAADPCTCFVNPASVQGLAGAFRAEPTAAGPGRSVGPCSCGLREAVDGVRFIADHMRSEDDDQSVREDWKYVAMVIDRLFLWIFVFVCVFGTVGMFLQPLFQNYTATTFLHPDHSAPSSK

Compound | tested on | test | system | setting | how to read | endpoint | result
NC12CC3CC(F)(CC(C1)c1ccccc13)C2 | Cytochrome P450 1A2 (CYP1A2, Homo sapiens, UniProt P05177) | enzyme activity, inhibitor, fluorescence |  | 10 µM |  | inhibition | 9 ± 2%
N#Cc1c(-c2ccc(Cl)cc2Cl)n(-c2nc(-c3ccc(Cl)cc3)c3c(NC(=O)c4ccccc4)nnc-3[nH]2)[nH]c1=O | HCC 2998 | SRB |  |  |  | CC50 | > 100 µM
CCOC(=O)C1=C(C)N(c2cccc(C(F)(F)F)c2)C(=O)N(CC(=O)N(C)C)[C@@H]1c1ccc(C#N)cc1 | Cytochrome P450 3A4 (CYP3A4, Homo sapiens, UniProt P08684) |  | human liver microsomes | pH 7.4, added: midazolam |  | IC50 | > 50 µM
Fc1ccc2[nH]cc(CNCC3(N4CCCC4)COC3)c2c1 | A 172 |  |  | 30 µM, 48 h | relative to: DMSO | viability | 96.6%
Cc1cc(Nc2ccc(S(F)(F)(F)(F)F)cc2)n2nc(C(C)(F)F)nc2n1 | Plasmodium falciparum | parasite growth, SYBR Green | Ugandan patient field isolates, human, Albumax-based medium | 72 h |  | EC50 | 0.0037 µM
CC(C)[C@H](NC(=O)[C@H](CO)NC(=O)[C@H](CC(=O)O)NC(=O)[C@H](CCC(N)=O)NC(=O)CCNC(=O)Cc1cc(=O)oc2cc(N)ccc12)C(=O)N[C@@H](CC(=O)O)C(=O)N[C@@H](Cc1ccccc1)C(=O)N[C@@H](COP(=O)(O)O)C(=O)N[C@@H](CC(N)=O)C(=O)N[C@@H](Cc1c[nH]cn1)C(=O)N[C@@H](CC(=O)O)C(=O)N[C@@H](CCCCNc1ccc([N+](=O)[O-])cc1[N+](=O)[O-])C(N)=O | CASP3 | substrate |  | pH 7.2 |  | Km | 16.4 µM
O=C(Nc1cccc(C2=NCCN2)c1)c1ccc(-c2ccc(C(=O)Nc3cccc(C4=NCCN4)c3)cc2)cc1 | HepG2 |  |  |  |  | CC50 | > 100 µM
CC(C)[C@H](NC(=O)[C@H](CO)NC(=O)[C@H](CC(=O)O)NC(=O)[C@H](CCC(N)=O)NC(=O)CCNC(=O)Cc1cc(=O)oc2cc(N)ccc12)C(=O)N[C@@H](CC(=O)O)C(=O)N[C@@H](Cc1ccccc1)C(=O)N[C@@H](CO)C(=O)N[C@@H](CC(N)=O)C(=O)N[C@@H](Cc1c[nH]cn1)C(=O)N[C@@H](CC(=O)O)C(=O)N[C@@H](CCCCNc1ccc([N+](=O)[O-])cc1[N+](=O)[O-])C(N)=O | CASP3 | substrate |  | pH 7.2 |  | Km | 13.3 µM
Cc1nn(-c2ccc(Cl)cc2)c2c1C(c1ccc(O)cc1)C(C#N)=C(N)O2 (centres unmarked) | Vero E6 |  |  | 1.6 µM |  | viability | 80.5%
C[C@@H](O)[C@@H]1NC(=O)[C@H]2NC(=O)[C@@H](NC(=O)CN)CSSC[C@H](NC(=O)[C@H](CCCNC(=N)N)NC(=O)[C@@H]3CCCN3C(=O)[C@H](CC(=O)O)NC1=O)C(=O)N[C@@H](CCCNC(=N)N)C(=O)N[C@@H](Cc1ccc(O)c(I)c1)C(=O)N[C@@H](CCC(N)=O)C(=O)N[C@H](C(=O)N[C@H](CC(=O)N[C@@H](CCCNC(=N)N)C(=O)O)Cc1ccc(O)cc1)CSSC2(C)C |  | RP-HPLC | 25% human serum | 150 µM, 24 h, 37 °C |  | remaining ribbon isomer | 6%
Cc1ccc2[nH]cc(CNCC3(N4CCCC4)COC3)c2c1 | HEK | single-dose screen |  | 30 µM, 48 h, off-target toxicity | relative to: DMSO control | viability | 100%
CCOc1ccc(C2C(C#N)=C(N)Oc3c2c(C)nn3-c2ccc(Cl)cc2)cc1 (centres unmarked) | Vero E6 |  |  | 6.3 µM |  | viability | 56.9%
CC[C@H](C)[C@@H]1NC(=O)[C@H](CCC(=O)O)NC(=O)[C@@H]2CCCN2C(=O)[C@H](Cc2c[nH]cn2)NC(=O)[C@H](CCCNC(=N)N)NC(=O)[C@H](C(C)C)NC(=O)[C@H](CC(N)=O)NC(=O)[C@@H]2CSSC[C@H](NC(=O)CN)C(=O)N[C@@H](CSSC[C@@H](C(N)=O)NC1=O)C(=O)N[C@@H](CO)C(=O)N[C@@H](Cc1c[nH]cn1)C(=O)N1CCC[C@H]1C(=O)N[C@@H](C(C)C)C(=O)N2 | Neuronal acetylcholine receptor; alpha2/beta2 (Rattus norvegicus, UniProt P12389+P12390) | ion current, antagonist, two-electrode voltage clamp | Xenopus oocytes | rat, added: ACh 100 µM |  | IC50 | > 10 µM
Cc1nn(-c2ccc(Cl)cc2)c2c1C(c1ccc([N+](=O)[O-])cc1)C(C#N)=C(N)O2 (centres unmarked) | Vero E6 |  |  | 6.3 µM |  | viability | 67.2%
C[C@@H](O)[C@H](NC(=O)[C@H](CCCNC(=N)N)NC(=O)[C@H](CCCCN)NC(=O)[C@H](Cc1ccc(O)cc1)NC(=O)[C@@H](N)CCCNC(=N)N)C(=O)O |  |  | bovine cartilage explants | 48 h, 4 °C, PBS 0.15 M | direction not given | net charge Z | 2.87 elementary charge
Cc1nn(-c2ccc(Cl)cc2)c2c1C(c1cc(Cl)ccc1Cl)C(C#N)=C(N)O2 (centres unmarked) | Vero E6 | MTT |  | 100 µM |  | viability | 51.2%
CCOC(=O)c1c(-c2ccc(Cl)cc2Cl)n(-c2nc(-c3ccc(Cl)cc3)c3c(NC(=O)c4ccccc4)nnc-3[nH]2)[nH]c1=O | UACC-257 | SRB |  |  |  | CC50 | 6.1 µM

Excerpt of the above:
Compound | tested on | test | system | setting | how to read | endpoint | result
O=C(Nc1cccc(C2=NCCN2)c1)c1ccc(-c2ccc(C(=O)Nc3cccc(C4=NCCN4)c3)cc2)cc1 | HepG2 |  |  |  |  | CC50 | > 100 µM
